Published values collected from several papers.
Each numbered part is a random draw from the data of one study; scales do not carry over between parts. Substitutions count along the parent as printed.
UniProt P16234, sequence (whole entry, looked up): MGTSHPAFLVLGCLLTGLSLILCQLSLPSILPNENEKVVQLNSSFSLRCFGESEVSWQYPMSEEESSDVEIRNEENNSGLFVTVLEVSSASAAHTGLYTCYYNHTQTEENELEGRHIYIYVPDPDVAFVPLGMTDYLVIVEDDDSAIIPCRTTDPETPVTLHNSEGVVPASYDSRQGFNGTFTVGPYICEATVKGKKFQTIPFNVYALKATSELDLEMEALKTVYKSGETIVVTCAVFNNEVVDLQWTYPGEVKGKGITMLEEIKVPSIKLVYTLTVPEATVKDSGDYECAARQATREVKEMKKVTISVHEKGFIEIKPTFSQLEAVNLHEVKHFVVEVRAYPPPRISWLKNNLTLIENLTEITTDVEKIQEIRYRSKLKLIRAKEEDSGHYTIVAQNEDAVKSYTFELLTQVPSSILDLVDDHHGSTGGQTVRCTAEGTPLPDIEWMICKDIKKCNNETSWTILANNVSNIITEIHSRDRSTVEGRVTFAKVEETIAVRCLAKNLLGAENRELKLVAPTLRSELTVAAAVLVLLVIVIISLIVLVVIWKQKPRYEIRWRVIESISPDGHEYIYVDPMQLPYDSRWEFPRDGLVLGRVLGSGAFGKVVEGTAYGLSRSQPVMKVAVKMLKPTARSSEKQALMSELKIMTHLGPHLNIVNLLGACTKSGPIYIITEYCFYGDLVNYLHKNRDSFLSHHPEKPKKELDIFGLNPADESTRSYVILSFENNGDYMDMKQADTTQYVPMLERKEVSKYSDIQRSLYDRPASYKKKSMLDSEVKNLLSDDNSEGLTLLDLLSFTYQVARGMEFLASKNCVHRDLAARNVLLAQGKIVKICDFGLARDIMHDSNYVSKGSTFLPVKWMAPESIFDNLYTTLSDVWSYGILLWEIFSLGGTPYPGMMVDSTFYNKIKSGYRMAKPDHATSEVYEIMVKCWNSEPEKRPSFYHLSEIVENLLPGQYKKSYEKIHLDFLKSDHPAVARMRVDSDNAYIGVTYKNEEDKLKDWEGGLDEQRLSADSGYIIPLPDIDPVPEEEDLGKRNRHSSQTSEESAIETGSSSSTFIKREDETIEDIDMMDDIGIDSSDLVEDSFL

Set 1 — Substitution: R74M; method: DHFR PCA, deep sequencing; matrix: yeast; relative to: wild-type fitted maximum; reading: higher = stronger binding; quantity: relative binding score
Target: ABI1, truncated, D143A, DHFR fusion (Arabidopsis thaliana)
Notes: methotrexate growth selection, single substitutions
Parent: PYL1, truncated, DHFR fusion (Arabidopsis thaliana); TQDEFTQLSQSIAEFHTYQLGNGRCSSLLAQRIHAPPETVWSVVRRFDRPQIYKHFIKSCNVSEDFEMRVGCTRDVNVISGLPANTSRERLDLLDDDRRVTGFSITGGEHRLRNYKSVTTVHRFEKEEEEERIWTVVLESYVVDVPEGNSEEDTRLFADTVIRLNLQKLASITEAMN; partner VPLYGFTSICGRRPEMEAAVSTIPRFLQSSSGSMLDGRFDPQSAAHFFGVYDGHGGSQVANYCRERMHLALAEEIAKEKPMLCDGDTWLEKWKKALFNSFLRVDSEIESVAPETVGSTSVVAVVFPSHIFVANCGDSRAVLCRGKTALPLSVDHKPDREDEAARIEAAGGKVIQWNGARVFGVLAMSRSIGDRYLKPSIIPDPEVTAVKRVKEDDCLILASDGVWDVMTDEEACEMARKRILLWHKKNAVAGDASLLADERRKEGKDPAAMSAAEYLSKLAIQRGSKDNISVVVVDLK
together with: (+)-ABA 1.4 µM: -15.7%
together with: (+)-ABA 17 µM: -1.35%
together with: (+)-ABA 2500 µM: -9.95%
together with: (+)-ABA 0.11 µM: 10.4%
together with: (+)-ABA 200 µM: 7.7%
together with: (+)-ABA 4.8 µM: 9.35%

Set 2 — method: EMSA with sequencing; molecule type: double-stranded DNA, one strand shown; matrix: in vitro; concentration: 10 and 20 nM; relative to: negative control set to 0; reading: higher = stronger binding; quantity: normalised bound fraction
Target: Hepatocyte nuclear factor 3-alpha (Foxa1, Mus musculus, UniProt P35582, residues 1-468, full length assumed)
Notes: whole designed probe, mean of two concentrations, ends assumed
Construct (chain): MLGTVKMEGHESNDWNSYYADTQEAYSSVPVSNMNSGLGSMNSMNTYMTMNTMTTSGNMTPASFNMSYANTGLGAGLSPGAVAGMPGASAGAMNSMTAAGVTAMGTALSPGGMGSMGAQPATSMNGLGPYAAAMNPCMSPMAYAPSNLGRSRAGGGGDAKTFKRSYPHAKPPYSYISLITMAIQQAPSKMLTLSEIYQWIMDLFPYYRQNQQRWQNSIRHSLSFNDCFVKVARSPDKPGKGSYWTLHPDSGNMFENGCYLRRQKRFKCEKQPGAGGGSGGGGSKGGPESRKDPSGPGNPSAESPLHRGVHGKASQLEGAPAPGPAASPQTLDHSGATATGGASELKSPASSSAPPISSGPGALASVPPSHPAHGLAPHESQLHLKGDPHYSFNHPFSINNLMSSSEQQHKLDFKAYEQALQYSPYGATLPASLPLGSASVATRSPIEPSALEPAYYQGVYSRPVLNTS
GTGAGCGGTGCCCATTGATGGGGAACTCTAGATTCTTTTCCTTAATCTGTAAATCCTCACAATCTTCCTGTTTTCTCTTCTCCCTATGATCCACTGTGCCCTAAATACCAATGTATTTAAGATTACAGTAAAATTACGATATCTTAGTCATCCTAACTTGGCCAAACAGAAAAATTTATATACATTTGTTAAAATTATATAGCCTCTCTCATTTATCTGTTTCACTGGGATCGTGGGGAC: -0.0259 ratio
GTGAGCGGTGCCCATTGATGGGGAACCAAATCAAATGGTCTTGATACCCATGAAATGCTTATCAATATTGATTAATAAACTGCAATTAATATAAAAATTCAGAAACAAAAAAACTGCATGTTTACATTTGAAAGAAGATCAAACTGAAAAAAAGTAGTCTGTTTGGAAAGAAACATTTTAAGAATATCAATAAATTAAATATTCAATTACCTAAGTTAATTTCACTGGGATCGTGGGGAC: 0.37 ratio
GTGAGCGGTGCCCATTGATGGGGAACGTTCCACTCACAGCTTGACAAGTGAACTCTTTGTCAATGACAAGGCAAAGGTTAATGATTAACAGGCACTGTATTTACCAACTTAGGAACTAAATAAACAGAATCCAGACAGGATACCATTAAGAGTTGCAGCATCACCAAAAATATCTGGCTGATTGACTGAATGTCGTCGCTTTTCTTTTTCTTTTTTTGATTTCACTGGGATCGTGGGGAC: 0.448 ratio
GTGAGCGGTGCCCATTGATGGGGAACTGCAAAGCAGCCTATTTTTTCTTCAATAAAAATTGTTAAGAGAAGTGTGTGTGTCATCTGCAGCACAGCTGTGGGAGGAGTGAGAGGGGTCTTGTTTACACAGTCACCAGCCCTGGCTGACTAGAGCAGAAGAGGGATTTGCTGGCAGAATATCAGTCAACCCTGCCAATGTCTAGTTAGTCTGGAGAACCTGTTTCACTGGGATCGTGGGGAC: 0.441 ratio
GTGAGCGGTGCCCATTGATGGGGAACAAAGTAATATAGCAGAATGACTTTTATTATAGATGATAATTTATGAAAAATGTAGCCAACGGAATTGATGTCAAACTTTTATCCACAAGTGCTATTTACTTTAGTATTGCTCACTATTTACCAAGGTTTGTTACAGCAGTAGTCACTATCTCAGTTGGCATTCGGCCTGTTTATATTTTTTAAAGTGGCATTGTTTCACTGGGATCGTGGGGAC: 0.39 ratio

Set 3 — target: NFIL3, bZIP domain (human); method: DHFR protein complementation; matrix: yeast; relative to: wild-type JUN-FOS pair; reading: higher = stronger binding; quantity: binding fitness
Notes: single substitutions, most at no-binding floor
Parent: JUN, bZIP domain (human); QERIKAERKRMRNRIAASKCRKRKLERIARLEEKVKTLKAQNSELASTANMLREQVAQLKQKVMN; partner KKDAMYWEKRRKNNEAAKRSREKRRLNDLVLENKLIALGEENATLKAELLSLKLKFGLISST
L31N: -1.51 natural log
R30Q: -1.49 natural log
S47N: -1.5 natural log
Q41V: -1.28 natural log
E32S: -1.48 natural log
V56N: -1.54 natural log
E33C: -1.57 natural log
A29P: -1.53 natural log

Mixed results
Nc1ncnc2n[nH]c(Nc3ccc(F)cc3)c12
remaining activity (Platelet-derived growth factor receptor alpha (PDGFRA, Homo sapiens, UniProt P16234); enzyme activity, inhibitor; 0.5 µM; relative to: control): 101%
